# Measured values pooled from the literature.
# Each line is one published result; not all experiments were run side by side. “And” joins repeats or separate records; there may be more than shown. Numbers after ± are the reported error.
Compound,organism,assay,test system,setting,scale,measurement,result
CCCCCCCCCCCC(=O)C(C)C(=O)N1CCC[C@H]1C(=O)NC(C)(C)C(=O)NC(C)(C)C(=O)NC(C)(C)C(=O)N[C@](C)(CC)C(=O)NCCC(=O)N[C@@H](C)C(=O)N[C@](C)(CC)C(=O)N[C@@H](C)C(=O)N[C@@H](CC(C)C)C(=O)N[C@](C)(CC)C(=O)NCCC(=O)N[C@@H](C)C(=O)N[C@](C)(CC)C(=O)NCCC(=O)N[C@@H](C)C(=O)NC(C)(C)C(=O)NC(C)(C)C(=O)NC(C)(C)C(=O)N[C@@H](C)C(=O)N[C@@H](CC(=O)O)C(=O)O (stereo partly shown),Candidozyma auris,calcofluor white microscopy,CBS 10913,"half MIC, 4 h, 30 °C, YPD medium","relative to: DMSO vehicle, higher = more chitin",chitin level (calcofluor fluorescence),0.044 a.u.
CN(C(=O)c1ccn2ncc(-c3ccc(C(N)=O)cc3)c2c1)c1ccc(C#N)cn1,Cryptosporidium parvum,,"UGA1 Nluc, IFN-gamma knockout C57BL/6 mice, faeces","oral, 10 mg/kg daily, 288 h post infection, treatment days 11-17",higher means more parasites,faecal Nluc luminescence,13600 a.u. and 165 a.u. and 1970 a.u. and 9400 a.u. and 1290 a.u.
CCc1nn(C)c2nc(-c3ccc(C(=O)O)cc3)nc(NCc3ccccc3)c12,Cryptosporidium parvum,,HCT-8,"EC50, 24 h",relative to: DMSO control,parasite number,136% and 119% and 86.8% and 103%
Cc1cc(C(=O)Nc2nc3cccc(C)c3n2[C@H]2CCCCN(C(=O)/C=C/CN(C)C)C2)ccn1,Trypanosoma brucei brucei,,2T1 CLK1 overexpressing,"0.0781 µM, compound pretreated",relative to: maximum,survival,206% and 201% and 189% and 209%
CC[C@H](C)[C@@H]1NC(=O)[C@H](CO)NC(=O)[C@H](CCCCN)NC(=O)[C@@H]2CSSC[C@@H](C(=O)N[C@@H](Cc3ccc(O)cc3)C(N)=O)NC(=O)[C@H](CCCCN)NC(=O)[C@@H]3CSSC[C@H](NC(=O)[C@H](CCCNC(=N)N)NC(=O)[C@H](CC(C)C)NC(=O)[C@H](CC(=O)O)NC(=O)[C@H](CC(=O)O)NC(=O)[C@H](CCC(=O)O)NC(=O)[C@H](CC(N)=O)NC(=O)[C@H](Cc4c[nH]c5ccccc45)NC(=O)C(C)(CC)NC(=O)CNC(=O)[C@H](CC(N)=O)NC(=O)[C@@H](NC(=O)CNC(=O)[C@H](Cc4ccccc4)NC(=O)CN)CSSC[C@H](NC(=O)[C@H](Cc4ccc(O)cc4)NC(=O)CNC(=O)CNC(=O)[C@H](CCCCN)NC(=O)[C@H](Cc4ccc(O)cc4)NC(=O)[C@H]4CCCN4C(=O)[C@@H]4CCCN4C1=O)C(=O)N[C@@H](C)C(=O)N[C@@H](CCCCN)C(=O)N1CCC[C@@H]1C(=O)NCC(=O)N[C@@H](Cc1ccccc1)C(=O)N[C@@H](C(C)C)C(=O)N3)C(=O)N[C@@H](Cc1c[nH]cn1)C(=O)N[C@@H](CC(N)=O)C(=O)N[C@@H](Cc1c[nH]cn1)C(=O)N2 (stereo partly shown),Streptococcus pneumoniae,,BS-441,"24 h, 37 °C, 99.9% killing",,MBC,0.5 µM
CC[C@H](C)CCCCC(=O)N[C@@H](CCN)C(=O)N[C@H](C(=O)N[C@@H](CCN)C(=O)N[C@H]1CCNC(=O)[C@H]([C@@H](C)O)NC(=O)[C@H](CCN)NC(=O)[C@H](CCN)NC(=O)[C@H](CC(C)C)NC(=O)[C@@H](CC(C)C)NC(=O)[C@H](CCN)NC1=O)[C@@H](C)O,Escherichia coli,daily serial passaging,ATCC 8739,"highest sub-MIC, 2 days",relative to: initial MIC,MIC fold change,1.05
O=S(=O)(c1ccc(-c2ccc3ncnc(Nc4ccccc4)c3c2)cc1)N1CCOCC1,Trypanosoma cruzi,"intracellular amastigote growth, β-galactosidase CPRG","3T3, Tulahuen, β-galactosidase-expressing","10 µM, 96 h",,inhibition,13%
CN(C)c1nc(NCc2cccc(-c3ccccc3)c2)c(/N=N/c2ccc(Cl)cc2)c(N(C)C)n1,Ostrinia furnacalis,leaf dipping,,"200 mg/L, 96 h",,mortality,76.7 ± 5.8%
CC(C)C[C@@H]1NC(=O)C(C)(C)NC(=O)[C@@H]2CCCN2C(=O)[C@H](C(C)C)NC(=O)[C@H](Cc2ccccc2)NC(=O)CSCCNC(=O)[C@H](Cc2ccccc2)N(C)C(=O)[C@H](CC(C)C)NC(=O)[C@H](Cc2cccc3ccccc23)NC1=O,HIV-1,viral replication,MT4,,relative to: cell EC50 over protease IC50,EC50/IC50 ratio,205
CC(=O)CCC1C(=O)NC(C(C)C)C(=O)NC(Cc2cc(O)cc(F)c2)C(=O)N2CCCC(N2)C(=O)OC(C(C)=CC=CC(=O)N2CCCCO2)CC=CC=CC(O)C(C)C1O (stereo not shown),Hepatitis C virus,viral replication,"Huh7, Con1 replicon",20% fetal bovine serum,,EC50,12 ± 2 nM
FC(F)(F)c1cccc(CNc2nc(NC3CCN(Cc4ccccc4)CC3)c3nc[nH]c3n2)c1,Cryptococcus neoformans,"mRNA level, RNA-seq, measured: ARG2 CNAG_02802",,"48 µg/mL, 3 h",relative to: untreated,fold change,2.19
CN(C)c1nc(NCc2ccc(-c3ccccc3)cc2)c(/N=N/c2ccc(Cl)cc2)c(N(C)C)n1,Ostrinia furnacalis,leaf dipping,,"200 mg/L, 96 h",,mortality,63.3 ± 5.8%
O=[N+]([O-])c1ccc(C2=[N+]([O-])c3ccccc3N3CCCN=C23)cc1,Clostridioides difficile,microbial growth,,,,MIC50,0.25 µg/mL
CCOC(=O)C1(C)Oc2cc(F)ccc2N(C)C1=O (stereo not shown),Setaria viridis,"fresh weight, greenhouse postemergence",,"postemergence, 150 g ai/ha, 21 days",,inhibition,44.6 ± 1.58%
CC(C)[C@H]1NC(=O)[C@H](Cc2ccccc2)NC(=O)[C@@H](C(C)C)NC(=O)[C@@H](C)NC(=O)[C@H](CC(=O)O)NC(=O)[C@@H](Cc2c(-c3ccc(-c4ccc5ccccc5c4)cc3)[nH]c3ccccc23)NC(=O)[C@@H](CO)NC1=O,Mycobacterium marinum,,,,,MIC90,> 100 µM
COc1ccc(Cn2c3cc(=O)n(Cc4cccc(Cl)n4)c(C)c3c(=O)n2-c2ccccn2)cc1,human respiratory syncytial virus,,recombinant reporter virus,"concentration not given, scale 0 to 100, with: adenosine 3.7 µM",,normalized viral replication,0
C[N+]1=C2C(c3ccc(Cl)cc3)=[N+]([O-])c3ccccc3N2CCC1,Clostridioides difficile,microbial growth,,,,MIC50,32 µg/mL
C[C@@H](O)[C@H](NC(=O)[C@@H](N)CCCNC(=N)N)C(=O)N[C@@H](CS)C(=O)N[C@@H](CCC(=O)O)C(=O)N[C@@H](CO)C(=O)N[C@@H](CCC(N)=O)C(=O)N[C@@H](CO)C(=O)N[C@@H](Cc1c[nH]cn1)C(=O)N[C@@H](CCCCN)C(=O)N[C@@H](Cc1ccccc1)C(=O)N[C@@H](CCCCN)C(=O)NCC(=O)N1CCC[C@H]1C(=O)N[C@@H](CS)C(=O)O,Botrytis cinerea,grey mould lesion size,detached rose petals,48 h post-inoculation,,lowest effective concentration,> 12 µM
CC(C)[C@H]1NC(=O)[C@H](Cc2ccccc2)NC(=O)[C@@H](C(C)C)NC(=O)[C@@H](C)NC(=O)[C@H](CO)NC(=O)[C@@H](Cc2c(-c3ccc(-c4ccc5ccccc5c4)cc3)[nH]c3ccccc23)NC(=O)[C@@H](C)NC1=O,Mycobacterium marinum,,,,,MIC90,31.2 µM
Cc1ccc(Nc2ncnc3ccc(-c4ccc(S(=O)(=O)N5CCOCC5)cc4)cc23)cc1,Trypanosoma cruzi,"intracellular amastigote growth, β-galactosidase CPRG","3T3, Tulahuen, β-galactosidase-expressing","10 µM, 96 h",,inhibition,59%
CC1(C)C(NC(=O)C(=NOC2(C(=O)O)CC2)c2csc(N)n2)C(=O)N1OS(=O)(=O)O (stereo not shown),Klebsiella pneumoniae,,"ATCC BAA-2146, ESBL and NDM-1 producing, ICR mice, systemic lethal infection",20 mg/kg,,survival rate,50%
CC(=O)O[C@@H]1C[C@@H](C)O[C@H]2O[C@@H]3C[C@@H]4CC[C@@H]5[C@H](CC[C@]6(C)[C@@H](C7=CC(=O)OC7)CC[C@]56O)[C@@]4(C)C[C@H]3O[C@]21O,Schistosoma mansoni,"viability, microscopic viability score",adult worms,72 h,,IC50,280 nM and 140 nM
CNCCO.O=C(O)C(Cl)Cl,Solanum nigrum,herbicidal activity,,"15 mg/mL, 21 days, post-emergence greenhouse",,inhibition,0%
CC[C@H](C)[C@@H]1NC(=O)[C@H](CO)NC(=O)C(C)(CCCCN)NC(=O)[C@@H]2CSSC[C@@H](C(=O)N[C@@H](Cc3ccc(O)cc3)C(N)=O)NC(=O)[C@H](CCCCN)NC(=O)[C@@H]3CSSC[C@H](NC(=O)[C@H](CCCNC(=N)N)NC(=O)C(C)(CC(C)C)NC(=O)[C@H](CC(=O)O)NC(=O)[C@H](CC(=O)O)NC(=O)[C@H](CCC(=O)O)NC(=O)[C@H](CC(N)=O)NC(=O)[C@H](Cc4c[nH]c5ccccc45)NC(=O)C(C)(CC)NC(=O)CNC(=O)[C@H](CC(N)=O)NC(=O)[C@@H](NC(=O)CNC(=O)[C@H](Cc4ccccc4)NC(=O)CN)CSSC[C@H](NC(=O)[C@H](Cc4ccc(O)cc4)NC(=O)CNC(=O)CNC(=O)[C@H](CCCCN)NC(=O)[C@H](Cc4ccc(O)cc4)NC(=O)[C@H]4CCCN4C(=O)[C@@H]4CCCN4C1=O)C(=O)N[C@@H](C)C(=O)N[C@@H](CCCCN)C(=O)N1CCC[C@@H]1C(=O)NCC(=O)N[C@@H](Cc1ccccc1)C(=O)N[C@@H](C(C)C)C(=O)N3)C(=O)N[C@@H](Cc1c[nH]cn1)C(=O)NC(C)(C)C(=O)N[C@@H](Cc1c[nH]cn1)C(=O)N2 (stereo partly shown),Streptococcus pneumoniae,,D39,"24 h, 37 °C, 99.9% killing",,MBC,2 µM
CC[C@H](C)[C@H](NC(=O)[C@H](CCCCN)NC(=O)[C@H](CC(=O)O)NC(=O)[C@H](CC(C)C)NC(=O)[C@@H](NC(=O)[C@H](CC(N)=O)NC(=O)[C@H](CC(C)C)NC(=O)[C@@H](NC(=O)[C@H](Cc1ccccc1)NC(=O)[C@H](CCCCN)NC(=O)[C@H](CCCCN)NC(=O)CNC(=O)[C@H](C)NC(=O)[C@H](CC(N)=O)NC(=O)[C@H](CCCCN)NC(=O)[C@H](Cc1ccccc1)NC(=O)[C@H](CC(N)=O)NC(=O)[C@H](CCC(=O)O)NC(=O)[C@H](Cc1c[nH]c2ccccc12)NC(=O)[C@H](CC(C)C)NC(=O)[C@@H](N)CO)[C@@H](C)CC)[C@@H](C)CC)C(=O)N[C@@H](CCCNC(=N)N)C(=O)N[C@H]1CSSC[C@@H](C(=O)N[C@@H](CCCNC(=N)N)C(=O)N[C@H](C(=O)O)[C@@H](C)O)NC(=O)CNC(=O)CNC(=O)[C@H](C)NC(=O)[C@H](C(C)C)NC(=O)[C@H](CCCNC(=N)N)NC1=O,Gram-negative bacteria,,,,,geometric mean MIC,13.5 µM
CCOC(=O)C1(Cc2cc(F)cc(F)c2)Oc2cc(F)ccc2N(Cc2cc(F)cc(F)c2)C1=O (stereo not shown),Setaria viridis,"fresh weight, greenhouse postemergence",,"postemergence, 150 g ai/ha, 21 days",,inhibition,33.7 ± 1.2%
CC(C)C[C@H](NC(=O)[C@H](CCN)NC(=O)[C@H](CCN)NC(=O)[C@@H](Cc1ccccc1)NC(=O)[C@H](CC(C)C)NC(=O)[C@H](CCN)NC(=O)[C@H](CCN)NC(=O)[C@@H](CCN)NC(=O)CCS)C(N)=O,Acinetobacter calcoaceticus,BHI agar spot plating,,"24 h, 37 °C",,MBC,64 µM
CC(C)[C@H]1NC(=O)[C@H](Cc2ccccc2)NC(=O)[C@@H](C)NC(=O)[C@@H](C)NC(=O)[C@H](CO)NC(=O)[C@@H](Cc2c(-c3ccc(-c4ccc5ccccc5c4)cc3)[nH]c3ccccc23)NC(=O)[C@@H](CO)NC1=O,Mycobacterium marinum,,,,,MIC90,> 100 µM

# Excerpt of the above:
Compound,organism,assay,test system,setting,scale,measurement,result
CN(C)c1nc(NCc2cccc(-c3ccccc3)c2)c(/N=N/c2ccc(Cl)cc2)c(N(C)C)n1,Ostrinia furnacalis,leaf dipping,,"200 mg/L, 96 h",,mortality,76.7 ± 5.8%
COc1ccc(Cn2c3cc(=O)n(Cc4cccc(Cl)n4)c(C)c3c(=O)n2-c2ccccn2)cc1,human respiratory syncytial virus,,recombinant reporter virus,"concentration not given, scale 0 to 100, with: adenosine 3.7 µM",,normalized viral replication,0
CCOC(=O)C1(C)Oc2cc(F)ccc2N(C)C1=O (stereo not shown),Setaria viridis,"fresh weight, greenhouse postemergence",,"postemergence, 150 g ai/ha, 21 days",,inhibition,44.6 ± 1.58%
FC(F)(F)c1cccc(CNc2nc(NC3CCN(Cc4ccccc4)CC3)c3nc[nH]c3n2)c1,Cryptococcus neoformans,"mRNA level, RNA-seq, measured: ARG2 CNAG_02802",,"48 µg/mL, 3 h",relative to: untreated,fold change,2.19
